Measurements gathered from unrelated publications.
Each numbered part is a random draw from the data of one study; scales do not carry over between parts. Substitutions count along the parent as printed.

Set 1
Target: RNA binding protein fox-1 homolog 2, RRM domain, GST-SBP tag (RBFOX2, Homo sapiens, UniProt O43251-10, residues 100-194)
Method: RNA Bind-n-Seq
Form: RNA
Medium: in vitro
Concentration: 365 nM
Notes: natural RNA segment, single round, ends assumed
Relative to: no-protein control
Reading: higher = stronger binding
Construct (chain): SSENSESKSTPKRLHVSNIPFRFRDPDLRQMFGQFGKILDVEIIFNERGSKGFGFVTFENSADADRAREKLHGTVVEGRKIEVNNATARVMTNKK
| Sequence | RBNS enrichment (R) |
| --- | --- |
| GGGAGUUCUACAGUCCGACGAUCUCUCACAGAGUACACUAGACAUACAUAGAGACACCUUGUAGUAUUUUGGAAGCAAAAGAUUAUUUUCUCUUAACAAGACUUUUUGUACUGAAAACAAUUUUUUUGAAUCUUGGAAUUCUCGGGUGCCAA | 0.54 |
| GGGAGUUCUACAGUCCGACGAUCCCAGCCUCAGAUCCUGUCUUUAGCAACCAGCUAAUAUUUACCCAGAGGUACUGCAAUAGAGUAUUUCAAAAUGGAAUCAGGAUCUGGUGGGCCUCAGAAAUUGUCUCUUUUGGAAUUCUCGGGUGCCAA | 0.36 |
| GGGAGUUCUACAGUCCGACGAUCUUUGUGAACUUCUCAAGCACGCACUCCCGUUUCCCUCUGCUUUGCAGAGGUUUUGAUGUAUCCCUGCCGUCUGCAAGAGUCCAGAGGCUGGACUGACAGUAGGAAGUAGAUGGAAUUCUCGGGUGCCAA | 1.85 |
| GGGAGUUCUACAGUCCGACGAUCCAGAUGUUAAGGUACAACUGUGUUUUUCUCGAUUAUCUAAAAACCAUAGUACUUAAAUUGAACAGUUGCAAAGAUGUCUUAAUUGUGUAAAGAAUUGGUGUAGUCAUGACUGGAAUUCUCGGGUGCCAA | 0.596 |
| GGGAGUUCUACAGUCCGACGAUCCCUUUGCAGGAUGGAACUACGGGGCUUACAGGAGCUUUUGUGUGCCUGGUAGAAACUAUUUCUGUUCCAGUCACAUUGCCAUCACUCUUGUACUGCCUGCCACCGCGGAGUGGAAUUCUCGGGUGCCAA | 0.218 |
| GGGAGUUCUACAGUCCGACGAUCUAAAAAGAGUCCUACCCCCCUCUUAAGCUGCAUAUCCCGUUCAGUUUAUUGCCCCCAUGGAGUUGAGUAAGCUUUUAAGACAGGAUAGGAAAGGGUCAACACUAAGGGGAUGGAAUUCUCGGGUGCCAA | 0.479 |
| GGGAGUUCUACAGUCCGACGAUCUGGGGCUGUGGCCCGUGCUGUAGUCUAUGGGCUCCUCCGUUCAAGCUGCAGCCCUGCUGGUCCCUUCAGCUCCACGCUGCUGCUCUGGCGAGGUUUUAAAGGGUGCCAUGUGGAAUUCUCGGGUGCCAA | 0.361 |
| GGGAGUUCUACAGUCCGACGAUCUGCCAGUGGCCCCCAGACUGUGGGGUUGGGACGCCUGGCCUCUGUGUCCUAGAAGGGACCCUCCUGUGGUCUUUGUCUUGAUUUUUCUUAAUAAACGGUGCUAUCCCCGCUGGAAUUCUCGGGUGCCAA | 0.727 |
| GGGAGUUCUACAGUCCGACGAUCGAUGCAUUCUUAUUGAAUACUAUCUUGGGUUUACCGUAUUUCCGACACACGAUAGUAAGGAGCAUUUAGCAAUGAUGGAAAGGAUUCUUGGACCUCUACCAAAACAUAUGUGGAAUUCUCGGGUGCCAA | 0.457 |
| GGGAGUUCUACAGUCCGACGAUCUGUCACUGAAUGAACCUUAUCGGGCAUAACUACAUGAAAAUGCAGUGACAGCUGAGUGUGCUGUGUCUCACACUAUCACCCGUCAUCAGGAUGUCUCUCCUUCCUUACUGUGGAAUUCUCGGGUGCCAA | 0.289 |
| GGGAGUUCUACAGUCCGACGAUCAGAACUCACAGCCACGGAAGAGUUGUUGCAUUCAGAUUCUUGAGAAACAUUUGUUGCUCGGCAACAGUACUGGUUGGGUUGACCAGUUAAGUACCAAAAGGCUAUGCUGUUGGAAUUCUCGGGUGCCAA | 0.589 |
| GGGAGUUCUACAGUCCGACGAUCGUUGAAGAGCUUUUCAUGUAUAGUAAACCAUGAUUCUGAGAGAAUCGAUUCUCCAAGGAGUCCUUCACUGGCCUAAACAUUCUGUAAUGUUGGGCAUUCAAGGGAAUGGAUGGAAUUCUCGGGUGCCAA | 0.279 |

Set 2
Target: Sal-like protein 4, full length isoform B (SALL4, Homo sapiens, UniProt Q9UJQ4-2, residues 1-616)
Method: universal PBM
Form: double-stranded DNA, one strand shown
Medium: in vitro
Concentration: not given
Notes: 8-mer, flanks averaged, mean of replicates
Reading: higher = stronger binding
| Sequence | E-score |
| --- | --- |
| ATTAGTGA | 0.164 |
| ACCAGAGT | -0.0949 |
| CGTCTTAC | -0.0116 |
| AATTGCAC | 0.0505 |
| TAAAGGCA | 0.11 |
| CCTAATTA | 0.204 |
| CCCTGCAC | -0.235 |
| CTAGACAA | -0.0032 |
| CGCGGGGA | -0.376 |
| TGTATTAA | 0.337 |
| ATACAGAC | 0.215 |
| CCGCACGC | -0.214 |
| CCATGACG | -0.133 |
| CGCCCCTA | -0.257 |
| GAGCATTA | 0.188 |
| TGGAGCCA | -0.155 |
| GGCGCCTA | -0.108 |
| AATGCCCA | -0.117 |
| GAACATCA | 0.0711 |
| CGATGCAC | -0.189 |
| ACATTGCA | 0.0432 |
| CCGGTTAG | -0.255 |
| ACGCCAGA | -0.154 |
| ACCGACCG | -0.263 |
| GACGATAC | -0.0796 |

Set 3
Target: Interferon regulatory factor 3, full length, phosphomimetic (IRF3, Homo sapiens, UniProt Q14653, residues 1-427, S386D/S396D/S398D/S402D/T404D/S405D)
Method: protein-binding microarray
Form: double-stranded DNA, one strand shown
Medium: in vitro
Concentration: 2540 nM top
Notes: 60-bp whole probe
Together with: salmon DNA 0.4 mg/ml
Relative to: random background probes
Reading: higher = stronger binding
Constant ends, left off below: GCCTAGCAC … GTCTTGATTCGCTTGACGCTGCTG
Residues (chain): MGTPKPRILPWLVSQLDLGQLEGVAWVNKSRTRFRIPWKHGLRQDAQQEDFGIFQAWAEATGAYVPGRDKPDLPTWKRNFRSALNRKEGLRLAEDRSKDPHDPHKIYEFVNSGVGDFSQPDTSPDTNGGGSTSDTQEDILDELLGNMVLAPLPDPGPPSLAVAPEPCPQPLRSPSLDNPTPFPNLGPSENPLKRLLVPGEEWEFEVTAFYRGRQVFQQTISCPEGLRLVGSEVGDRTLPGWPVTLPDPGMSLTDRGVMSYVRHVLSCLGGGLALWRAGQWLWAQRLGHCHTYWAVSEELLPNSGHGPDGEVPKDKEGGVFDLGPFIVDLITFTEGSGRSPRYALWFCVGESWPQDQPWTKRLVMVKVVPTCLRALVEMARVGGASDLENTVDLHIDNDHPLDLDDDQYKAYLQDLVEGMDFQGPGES
| Sequence | fitted relative affinity [z-score] |
| --- | --- |
| GACGGTTTCGACTATCTGGACGTGCTA | 2.85 |
| GACGATTTCGGGCATCGAGACGTGCTA | 0.653 |
| GAGTTTCTATTTTCTGAATGGTGCTAG | 4.92 |
| TTTGATTTCGGGTATCGATTAGTGCTA | 1.91 |
| GACGAACTGAGTCTCGAGAAGTGCTAG | -0.349 |
| TTTGATATCAGTATCGATTAGTGCTAG | 1.84 |
| GACGGTTTCATTCTCCTGACGTGCTAG | 6.22 |
| TTAGATATAGGGTTTCGATTAGTGCTA | 1.53 |
| GACGATTTCAGTTTCGAGTCGTGCTAG | 5.45 |
| GACGATTTCAGACTGCAGACGTGCTAG | 1.1 |
| TCCCCTCTAGGTTCTCTGAAGGTGCTA | 0.34 |
| GACAATCTCAGACTGGAGACGTGCTAG | 0.194 |
| GACGGTCTCGGGCTCGGGACGTGCTAG | -0.263 |
| TTAGGTCTCGGTATCGGTGAGTGCTAG | 1.57 |
| TCAGTTTTAGGTCCCTTACTGTGCTAG | 1.78 |
| TCATTTTTTTTTTTTGGACTGTGCTAG | 1.17 |
| TCACTTCTGTATTCATGACTGTGCTAG | 1.39 |
| TCATGTTTCCTTCCTCTACTGTGCTAG | 5.47 |
| CACTGCATCTGATTTCTCAAAGTGCTA | 0.25 |
| ACCTAATTCACTATTACCAAGTGCTAG | 2.01 |
| TCACTTCTCCATTTTTCACTGTGCTAG | 2.44 |
| GACTGTATCGGTTTCGGGACGTGCTAG | 7.27 |
| ATAGGACTGGGACTGGGTTAGTGCTAG | -0.942 |
| TCAGGTCTCGCTATGTTACTGTGCTAG | 0.448 |
| TAAGGTATCGGGTTTCGGTTAGTGCTA | 3.82 |

Set 4
Target: ABI1, truncated, D143A, DHFR fusion (Arabidopsis thaliana)
Method: DHFR PCA, deep sequencing
Medium: yeast
Notes: methotrexate growth selection, single substitutions
Together with: (+)-ABA 710 µM
Relative to: wild-type fitted maximum
Reading: higher = stronger binding
Parent: PYL1, truncated, DHFR fusion (Arabidopsis thaliana); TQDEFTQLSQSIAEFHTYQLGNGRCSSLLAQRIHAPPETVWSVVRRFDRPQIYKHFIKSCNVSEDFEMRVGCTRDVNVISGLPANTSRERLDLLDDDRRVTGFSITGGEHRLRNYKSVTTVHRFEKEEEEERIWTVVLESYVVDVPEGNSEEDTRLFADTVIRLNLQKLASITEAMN
| Variant | relative binding score [%] |
| --- | --- |
| E67C | 97.4 |
| M176W | 93.6 |
| E67R | 99.3 |
| E125R | 104 |
| T135D | -1.29 |
| D65M | 98.3 |
| R49S | 97.9 |
| R24K | 99.3 |
| A175E | 100 |
| N114C | 86.5 |
| V43E | 56.2 |
| P83W | 13.8 |
| V137R | 2.43 |
| D153P | 2.51 |
| E131V | 109 |
| D48W | 60.5 |
| A158D | -2.43 |
| A13M | 76.9 |
| R32F | 83.9 |
| L94C | 96 |
| R24L | 99.4 |
| L28H | 77.1 |
| T101E | 38.6 |
